Results pooled from the literature.
Parts stem from different laboratories: compare values within a part only. Positions count from the first letter of the parent shown.

Set 1
Target: Prothrombin, mature alpha-thrombin (F2, Homo sapiens, UniProt P00734)
Technique: aptamer microarray, sandwich
Form: DNA with 2'F-ANA
Medium: in vitro
Tested at: 200 nM
Setting: whole 15-mer aptamer, many near background
Added: Cy3 exosite-II aptamer, 400 nM
Reading: higher = stronger binding
Sequence: GGTTGGTGTGGTTGG
For `2'F-ANA at 4 5 6 12 14 15`, “mean fluorescence intensity” read 52.3 a.u.
`2'F-ANA at 1 3 4 6 9 14`: “mean fluorescence intensity” 78.1 a.u.
`2'F-ANA at 1 2 5 7 8 9 10 14`: “mean fluorescence intensity” 65.6 a.u.
`2'F-ANA at 1 3 6 8 9 10 12 14`: “mean fluorescence intensity” 64 a.u.
`2'F-ANA at 3 7 14` — result for “mean fluorescence intensity”: 772 a.u.
`2'F-ANA at 1 2 3 4 5 9 11 12` — result for “mean fluorescence intensity”: 97.5 a.u.
`2'F-ANA at 2 3 5 6 12 13` — result for “mean fluorescence intensity”: 158 a.u.
Under “mean fluorescence intensity”, `2'F-ANA at 1 2 3 4 6 15` is recorded as 223 a.u.
For `2'F-ANA at 1 6 9 10 11 12 13 15`, “mean fluorescence intensity” read 72.7 a.u.
`2'F-ANA at 2 3 4 7 8 9 10 14`: “mean fluorescence intensity” 201 a.u.
`2'F-ANA at 1 3 5 6 10 11 12 14 15` — result for “mean fluorescence intensity”: 46.9 a.u.
For `2'F-ANA at 3 4 5 7 9 10 11 13 14 15`, “mean fluorescence intensity” read 69.6 a.u.
For `2'F-ANA at 1 2 3 7 8 11 12 14`, “mean fluorescence intensity” read 101 a.u.
`2'F-ANA at 1 2 4 8 10`: “mean fluorescence intensity” 57 a.u.
`2'F-ANA at 2 4 5 6 10 11 12 13` — result for “mean fluorescence intensity”: 79 a.u.
`2'F-ANA at 3 8 9 12 13` — result for “mean fluorescence intensity”: 1140 a.u.
Under “mean fluorescence intensity”, `2'F-ANA at 1 2 3 4 9 11 13 15` is recorded as 111 a.u.
`2'F-ANA at 1 3 5 8 13 14 15`: “mean fluorescence intensity” 45.3 a.u.
For `2'F-ANA at 1 2 5 6 9 13 14 15`, “mean fluorescence intensity” read 95.1 a.u.
`2'F-ANA at 1 3 4 6 7 9 10 11 12 13 15`: “mean fluorescence intensity” 65.8 a.u.
Under “mean fluorescence intensity”, `2'F-ANA at 1 3 5 7 10 11 13 14` is recorded as 61.3 a.u.
`2'F-ANA at 1 4 5 7 8 11 12 14 15` — result for “mean fluorescence intensity”: 51.7 a.u.

Set 2
Target: CREB3L2, bZIP domain (human)
Technique: DHFR protein complementation
Medium: yeast
Setting: single substitutions, most at no-binding floor
Baseline: wild-type JUN-FOS pair
Reading: higher = stronger binding
Starting sequence: JUN, bZIP domain (human); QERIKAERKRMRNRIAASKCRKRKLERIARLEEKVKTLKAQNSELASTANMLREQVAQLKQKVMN; partner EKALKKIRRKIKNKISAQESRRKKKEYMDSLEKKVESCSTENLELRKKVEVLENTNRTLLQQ
The binding fitness of `V35C` is reported as -1.48 natural log.
`E32I` has a binding fitness of -1.49 natural log.
`K36R` gave a binding fitness of -1.51 natural log.
The binding fitness of `R30S` is reported as -1.43 natural log.
`A49K` gave a binding fitness of -1.55 natural log.
With `E54S` the binding fitness was -1.52 natural log.
`Q41D` gave a binding fitness of -1.53 natural log.
The binding fitness of `Q41W` is reported as -1.63 natural log.
The binding fitness of `E54R` is reported as -1.51 natural log.
For `T37E`, the binding fitness was -1.5 natural log.
The binding fitness of `V56F` is reported as -1.31 natural log.
The binding fitness of `E33L` is reported as -1.46 natural log.
`V35A` gave a binding fitness of -1.36 natural log.

Set 3
Target: RING finger protein unkempt homolog, zinc fingers 1-6, GST-SBP tag (UNK, Homo sapiens, UniProt Q9C0B0, residues 30-357)
Sequence of UniProt Q9C0B0 (30-357, looked up): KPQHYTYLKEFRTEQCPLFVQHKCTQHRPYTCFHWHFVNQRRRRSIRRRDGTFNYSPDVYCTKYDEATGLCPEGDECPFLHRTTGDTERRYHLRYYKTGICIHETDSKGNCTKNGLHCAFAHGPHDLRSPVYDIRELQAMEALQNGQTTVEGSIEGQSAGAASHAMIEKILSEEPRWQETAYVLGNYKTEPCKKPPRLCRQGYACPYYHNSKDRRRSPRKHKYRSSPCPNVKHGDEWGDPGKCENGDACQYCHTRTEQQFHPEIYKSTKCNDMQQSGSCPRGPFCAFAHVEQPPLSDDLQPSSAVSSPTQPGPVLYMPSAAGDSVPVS
Technique: RNA Bind-n-Seq
Form: RNA
Medium: in vitro
Tested at: not given
Setting: RNA with constant flanks, human-mouse chimeric sites, ends assumed
Baseline: input RNA pool
Reading: higher = stronger binding
Constant ends, left off below: GGGAGUUCUACAGUCCGACGAUC … CAACAGAGGAUUGAGCAUCA
`GAAAGAGAACUAAAGCAACUAAUAGAGAAGAGGAUUGGCAAAGAGAAUUUCAUAGAGGAAACUAGGAUUAUUAGCAAACAUGAGUUAUAUUCCAGAGCGUCUCAGAAACCCCAGCCAAAC` gave a bound/input enrichment of 3.57 ratio.
With `GUCAACAGCUGCCUCAACCCCAUCCUCUACGCCUUCCUGGAUGAGAACUUCAAGGCCUGCUUCCGCAAGUUCUGCUGUGCAUCUGCCCUGCACCGGGACGUGCAGGUGUCUGACCGCGUG` the bound/input enrichment was 0.316 ratio.
`GAUAAGAAAAGCUUGUUGGAGACCCGCUUGCAUGUCACUGGUAGAGACCUGAGGUGUAAAAUAGCUGAAACUUUCGGAUUUCAAGAAAAUUAUAUCAAGAUCGUAAUAAAUAAGAAACAG` has a bound/input enrichment of 0.568 ratio.
For `GAUCCACAGUGGUCUGAGGAGCAACUCAUUGCUGCAAAAUUCUGUUUUGCUGGCCUUGUUAUAGGGCAGACUGAAGUGGAUAUCAUGAGUCAUGCCACACAAGCUAUUUUUGAAAUUCUG`, the bound/input enrichment was 0.209 ratio.
With `AAAGAGAAACUAAAGCAAACUGAUUGAAAGAGGAUUGGCAAAGAGAAUUUCAUAGAGAAACUAGGAUUUAUUAGCAAAACAUGAGUUUAUUCCAGAGCGUCUCAGAAACCCCAGCCAAAC` the bound/input enrichment was 7.34 ratio.
With `UUGCCUGAGAACGAGGAUGAGCUGGAGAGCACCAACAGGCGCUACACCAAGAGGGACUGCAGCACUUUCCUCAGAACUAGUGAGACGGGCAUCGUGGACCAGGUCAUGGUAACUCUCAAC` the bound/input enrichment was 0.0824 ratio.
`GAGCCCAGUCGGCAGUUUGUAAAGGACUCCAUUCGGCUGGUUAAAAGAUGCACCAAACCCGACAGAAAAGAAUUCCAGAAGAUUGCCAUGGCUACAGCUAUAGGAUUUGCUAUCAUGGGA` gave a bound/input enrichment of 0.218 ratio.
For `GCUCUUGGGAAUGUAAUCAGCGCCUUGGGGGACAAGAGCAAGAGAGCCACCCAUGUCCCCUAUAGAGACUCUAAGCUGACAAGACUCUUGCAGGAUUCCCUCGGGGGUAACAGCCAAACC`, the bound/input enrichment was 0.195 ratio.

Set 4
Target: Interferon regulatory factor 5, full length, phosphomimetic (IRF5, Homo sapiens, UniProt Q13568-2, residues 1-514, K96S/S451D/S453D/S456D/S462D)
Technique: protein-binding microarray
Form: double-stranded DNA, one strand shown
Medium: in vitro
Tested at: 250 nM
Setting: 60-bp whole probe
Added: salmon DNA 0.4 mg/ml
Baseline: random background probes
Reading: higher = stronger binding
Constant ends, left off below: GCCTAGCAC … GTCTTGATTCGCTTGACGCTGCTG
`TCAGTTTCCTTCCTCTTACTGTGCTAG` gave a log fluorescence of 2.15 z-score.
For `ATCATTTTAGTTTTCATTATGTGCTAG`, the log fluorescence was 2.98 z-score.
For `CTTGCTCTTGTTTTCACAGGGTGCTAG`, the log fluorescence was 0.692 z-score.
The log fluorescence of `GACGGTATCGACACTGGGGCCGTGCTA` is reported as 1.36 z-score.
`GACGATATCAGACTGGAAACGTGCTAG` gave a log fluorescence of 0.692 z-score.
With `TTAGGACTGCGGTATCGGTTAGTGCTA` the log fluorescence was 3.11 z-score.
For `AGGTTTCTATATTTGCTTCAGTGCTAG`, the log fluorescence was 3.32 z-score.
The log fluorescence of `TCATGCTTGTGTTTATTACTGTGCTAG` is reported as 0.251 z-score.
For `GACGATATCGGGAGTGGAGACGTGCTA`, the log fluorescence was 0.898 z-score.
`GACGGTATCGGACTGGGTACGTGCTAG` has a log fluorescence of 0.84 z-score.
`TCACCTACAGGTTCTCTGACTGTGCTA` has a log fluorescence of -0.118 z-score.
With `TCATTAATGCTTCTGGGACTGTGCTAG` the log fluorescence was 0.12 z-score.
With `TCAGAATTGAAAATTAGTACTGTGCTA` the log fluorescence was 0.481 z-score.
With `TTAGATATCAGTTTCGATTAGTGCTAG` the log fluorescence was 10 z-score.
The log fluorescence of `TCAATTTCCATTTTCTAACTGTGCTAG` is reported as 1.99 z-score.
`GACGATTTCTGACTGGAGACGTGCTAG` has a log fluorescence of 0.259 z-score.
For `TTAGGACTGGTTTTCGGTTAGTGCTAG`, the log fluorescence was 6.64 z-score.
The log fluorescence of `TTAGGACTGCTTCTCCTGTAGTGCTAG` is reported as -0.374 z-score.
The log fluorescence of `TGCCTTTTTTTTTTTTTCTGGTGCTAG` is reported as 1.04 z-score.

A few entries again (set 3):
For `GCUCUUGGGAAUGUAAUCAGCGCCUUGGGGGACAAGAGCAAGAGAGCCACCCAUGUCCCCUAUAGAGACUCUAAGCUGACAAGACUCUUGCAGGAUUCCCUCGGGGGUAACAGCCAAACC`, the bound/input enrichment was 0.195 ratio.
`GAAAGAGAACUAAAGCAACUAAUAGAGAAGAGGAUUGGCAAAGAGAAUUUCAUAGAGGAAACUAGGAUUAUUAGCAAACAUGAGUUAUAUUCCAGAGCGUCUCAGAAACCCCAGCCAAAC` gave a bound/input enrichment of 3.57 ratio.
`GAGCCCAGUCGGCAGUUUGUAAAGGACUCCAUUCGGCUGGUUAAAAGAUGCACCAAACCCGACAGAAAAGAAUUCCAGAAGAUUGCCAUGGCUACAGCUAUAGGAUUUGCUAUCAUGGGA` gave a bound/input enrichment of 0.218 ratio.
With `UUGCCUGAGAACGAGGAUGAGCUGGAGAGCACCAACAGGCGCUACACCAAGAGGGACUGCAGCACUUUCCUCAGAACUAGUGAGACGGGCAUCGUGGACCAGGUCAUGGUAACUCUCAAC` the bound/input enrichment was 0.0824 ratio.
With `AAAGAGAAACUAAAGCAAACUGAUUGAAAGAGGAUUGGCAAAGAGAAUUUCAUAGAGAAACUAGGAUUUAUUAGCAAAACAUGAGUUUAUUCCAGAGCGUCUCAGAAACCCCAGCCAAAC` the bound/input enrichment was 7.34 ratio.
`GAUAAGAAAAGCUUGUUGGAGACCCGCUUGCAUGUCACUGGUAGAGACCUGAGGUGUAAAAUAGCUGAAACUUUCGGAUUUCAAGAAAAUUAUAUCAAGAUCGUAAUAAAUAAGAAACAG` has a bound/input enrichment of 0.568 ratio.
With `GUCAACAGCUGCCUCAACCCCAUCCUCUACGCCUUCCUGGAUGAGAACUUCAAGGCCUGCUUCCGCAAGUUCUGCUGUGCAUCUGCCCUGCACCGGGACGUGCAGGUGUCUGACCGCGUG` the bound/input enrichment was 0.316 ratio.
For `GAUCCACAGUGGUCUGAGGAGCAACUCAUUGCUGCAAAAUUCUGUUUUGCUGGCCUUGUUAUAGGGCAGACUGAAGUGGAUAUCAUGAGUCAUGCCACACAAGCUAUUUUUGAAAUUCUG`, the bound/input enrichment was 0.209 ratio.
